Measured values of several laboratories.
A part holds a random share of what one study measured. Several values in a cell are separate wells, animals, samples, runs or records. Positions count from the first letter of the parent shown.

Set 1
Target: Muscarinic acetylcholine receptor M1 (CHRM1, Homo sapiens, UniProt P11229)
Chain of UniProt P11229 (whole entry, looked up): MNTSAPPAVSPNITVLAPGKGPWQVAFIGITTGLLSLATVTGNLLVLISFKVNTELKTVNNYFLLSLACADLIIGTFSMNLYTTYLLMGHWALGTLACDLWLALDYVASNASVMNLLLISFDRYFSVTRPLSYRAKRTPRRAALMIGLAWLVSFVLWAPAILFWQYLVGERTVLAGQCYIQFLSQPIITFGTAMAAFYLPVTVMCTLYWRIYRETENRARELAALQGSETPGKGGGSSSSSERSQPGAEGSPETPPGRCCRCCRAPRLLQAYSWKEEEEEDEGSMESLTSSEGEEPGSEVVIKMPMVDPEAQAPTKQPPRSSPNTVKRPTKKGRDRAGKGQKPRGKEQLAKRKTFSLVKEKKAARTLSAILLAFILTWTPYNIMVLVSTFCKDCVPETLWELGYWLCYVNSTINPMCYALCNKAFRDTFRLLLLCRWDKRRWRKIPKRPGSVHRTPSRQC
Effect on: ligand displacement
Concentration: 10 µM
Measurement: inhibition
CC1CCN(c2ccnc(NCc3cn(C)cn3)n2)CC1: 17.2%
COc1cc(-c2cn(C3CCc4c(F)cccc4N(CC(F)(F)F)C3=O)nn2)ccc1-n1cnc(C)c1 (centres unmarked): 8.88%
CC1=C(C#N)C(c2ccc3[nH]nc(C)c3c2)C(C#N)=C(C)N1: 13.9%

Set 2
Target: CCND1, cyclin fold, Cln2 fusion (human)
Technique: yeast growth competition, sequencing
Matrix: yeast
Notes: strong parent motif
Relative to: not given
Reading: higher = stronger binding
Measurement: normalised enrichment score
Starting sequence: viral docking peptide; YKVKRRLVFGADD; partner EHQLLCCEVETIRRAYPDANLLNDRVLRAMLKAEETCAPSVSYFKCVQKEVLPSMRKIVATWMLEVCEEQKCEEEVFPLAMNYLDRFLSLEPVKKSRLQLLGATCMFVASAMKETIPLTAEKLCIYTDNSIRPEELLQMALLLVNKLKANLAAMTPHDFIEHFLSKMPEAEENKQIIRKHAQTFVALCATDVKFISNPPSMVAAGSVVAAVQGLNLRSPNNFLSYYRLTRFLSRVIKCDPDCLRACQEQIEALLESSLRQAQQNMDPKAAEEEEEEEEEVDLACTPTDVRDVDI
V3A: 5.57
L7N: 0.357
L7K: -0.221
V8Q: 2.06
G10M: 1.06
D12G: 1.34
K4S: 2.74
V3L: 0.455

Set 3
Target: Leukocyte tyrosine kinase receptor (LTK, Homo sapiens, UniProt P29376)
Chain of UniProt P29376 (whole entry, looked up): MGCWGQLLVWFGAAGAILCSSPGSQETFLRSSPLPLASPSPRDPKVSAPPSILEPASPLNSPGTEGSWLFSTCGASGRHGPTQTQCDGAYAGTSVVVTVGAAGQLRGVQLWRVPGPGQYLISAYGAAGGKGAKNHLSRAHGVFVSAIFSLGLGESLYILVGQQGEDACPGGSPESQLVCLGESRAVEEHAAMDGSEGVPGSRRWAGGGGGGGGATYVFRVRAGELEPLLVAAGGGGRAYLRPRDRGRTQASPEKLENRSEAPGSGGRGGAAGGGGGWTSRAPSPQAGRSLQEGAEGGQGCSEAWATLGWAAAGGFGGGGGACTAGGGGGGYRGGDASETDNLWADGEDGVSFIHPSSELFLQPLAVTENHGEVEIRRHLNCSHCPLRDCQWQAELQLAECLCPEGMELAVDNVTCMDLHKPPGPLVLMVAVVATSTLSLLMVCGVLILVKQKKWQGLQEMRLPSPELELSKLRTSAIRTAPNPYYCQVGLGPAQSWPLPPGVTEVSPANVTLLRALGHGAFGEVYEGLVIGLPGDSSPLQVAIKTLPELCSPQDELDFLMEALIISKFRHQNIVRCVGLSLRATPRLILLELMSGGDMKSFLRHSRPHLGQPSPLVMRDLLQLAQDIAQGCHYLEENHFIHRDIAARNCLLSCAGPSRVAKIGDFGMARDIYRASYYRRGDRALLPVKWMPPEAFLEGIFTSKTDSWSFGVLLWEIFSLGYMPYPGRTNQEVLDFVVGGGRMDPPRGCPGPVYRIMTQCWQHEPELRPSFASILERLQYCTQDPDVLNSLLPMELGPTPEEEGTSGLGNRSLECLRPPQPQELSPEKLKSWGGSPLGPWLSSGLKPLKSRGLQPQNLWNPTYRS
Effect on: enzyme activity
Mode: inhibitor
Technique: radiometric
Concentration: 0.5 µM
Measurement: remaining activity
Nc1[nH]nc2nnc(-c3c(-c4ccccc4)nn4ccccc34)cc12: 90.5%
CN(C)CCCn1cc(C2=C(c3c[nH]c4ccccc34)C(=O)NC2=O)c2ccccc21: 99.5%
COc1ccc(-c2cnc3c(-c4ccsc4)cnn3c2)cc1: 98.9%
CC(C)c1nn(-c2c(Cl)cccc2Cl)c2nc(Cc3ccc(OCCO)cc3)[nH]c(=O)c12: 87.4%
COc1ccc2c(c[n+](C)c3c4cc5c(cc4ccc23)OCO5)c1OC: 95.9%

Set 4
SMILES: CC(C)S(=O)(=O)c1cc2c(Nc3ccc4sc(C5CCCC5)nc4c3)ccnc2cc1OCCO
Measurement: viability
L929 RIPK3 knockout; 100 µM, with: zVAD: 17.7% and 11.6% and 11.5%
L929; CCK-8; 0.781 µM: 102% and 95.9% and 96% and 98.2% and 99.7%
L929; CCK-8; 12.5 µM: 78.2% and 77.3% and 75.7% and 91.9% and 89.9%
L929; CCK-8; 25 µM: 56.3% and 75.5% and 55.6% and 56% and 76%
L929 RIPK3 knockout; 3.125 µM, with: zVAD: 98.2% and 92.8% and 91.8% and 90.1% and 98.5%
L929; CCK-8; 100 µM: 13.4% and 15% and 13.2% and 13.6% and 15.6%
L929 RIPK3 knockout; 50 µM: 54.2% and 52.4% and 52% and 54.6% and 56.2%
L929 RIPK3 knockout; 1.563 µM, with: zVAD: 91.2% and 90.9% and 97.8% and 88.8%
L929; CCK-8; 0.781 µM, with: zVAD: 90.8% and 86.3% and 94.6% and 66.1%
L929 RIPK3 knockout; 12.5 µM, with: zVAD: 81.9% and 85.5% and 80.8% and 79.5% and 88.9%
L929; CCK-8; 12.5 µM, with: zVAD: 105% and 90.6% and 79.3% and 76.6%
L929; CCK-8; 3.125 µM: 92.6% and 92.7% and 92.9% and 98.5% and 97.7%
L929 RIPK3 knockout; 3.125 µM: 91.9% and 96.2% and 96.7% and 96% and 90.8%

Repeated from above (set 3):
COc1ccc(-c2cnc3c(-c4ccsc4)cnn3c2)cc1: 98.9%
CC(C)c1nn(-c2c(Cl)cccc2Cl)c2nc(Cc3ccc(OCCO)cc3)[nH]c(=O)c12: 87.4%
